Assay results collected from several papers.
Each line is one published result; not all experiments were run side by side. Numbers after ± are the reported error.
HLA class I histocompatibility antigen, B alpha chain: HLA class I histocompatibility antigen, B alpha chain (Homo sapiens, UniProt P01889)
cas9: CRISPR-associated endonuclease Cas9/Csn1 (cas9, Streptococcus pyogenes serotype M1, UniProt Q99ZW2)
Sequence of UniProt Q969G3 (whole entry, looked up): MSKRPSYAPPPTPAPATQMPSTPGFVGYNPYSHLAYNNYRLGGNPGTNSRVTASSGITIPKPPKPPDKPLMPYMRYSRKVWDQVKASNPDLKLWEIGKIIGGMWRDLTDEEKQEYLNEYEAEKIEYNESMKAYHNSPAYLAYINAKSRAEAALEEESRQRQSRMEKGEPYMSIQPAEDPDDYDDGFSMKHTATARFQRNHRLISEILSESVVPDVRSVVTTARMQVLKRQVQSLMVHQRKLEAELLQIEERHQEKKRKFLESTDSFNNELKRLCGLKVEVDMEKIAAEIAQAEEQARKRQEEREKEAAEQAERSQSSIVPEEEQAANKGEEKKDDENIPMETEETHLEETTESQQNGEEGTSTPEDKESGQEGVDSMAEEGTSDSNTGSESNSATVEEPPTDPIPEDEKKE
Sequence of UniProt P29350 (whole entry, looked up): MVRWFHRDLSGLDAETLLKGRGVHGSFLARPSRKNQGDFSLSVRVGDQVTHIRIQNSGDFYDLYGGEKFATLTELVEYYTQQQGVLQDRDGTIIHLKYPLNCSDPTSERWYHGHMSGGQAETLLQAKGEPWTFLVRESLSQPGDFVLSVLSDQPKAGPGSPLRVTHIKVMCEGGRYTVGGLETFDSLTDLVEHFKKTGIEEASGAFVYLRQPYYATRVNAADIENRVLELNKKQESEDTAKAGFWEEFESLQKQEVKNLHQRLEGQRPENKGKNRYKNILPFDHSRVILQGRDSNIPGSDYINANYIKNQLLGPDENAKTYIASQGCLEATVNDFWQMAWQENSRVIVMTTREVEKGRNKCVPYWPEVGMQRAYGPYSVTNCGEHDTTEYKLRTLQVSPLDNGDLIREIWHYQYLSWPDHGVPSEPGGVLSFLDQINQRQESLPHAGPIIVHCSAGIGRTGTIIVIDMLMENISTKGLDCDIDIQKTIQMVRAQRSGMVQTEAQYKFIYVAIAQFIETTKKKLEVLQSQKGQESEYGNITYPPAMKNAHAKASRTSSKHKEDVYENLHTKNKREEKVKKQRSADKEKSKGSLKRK
Sequence of UniProt P23946 (whole entry, looked up): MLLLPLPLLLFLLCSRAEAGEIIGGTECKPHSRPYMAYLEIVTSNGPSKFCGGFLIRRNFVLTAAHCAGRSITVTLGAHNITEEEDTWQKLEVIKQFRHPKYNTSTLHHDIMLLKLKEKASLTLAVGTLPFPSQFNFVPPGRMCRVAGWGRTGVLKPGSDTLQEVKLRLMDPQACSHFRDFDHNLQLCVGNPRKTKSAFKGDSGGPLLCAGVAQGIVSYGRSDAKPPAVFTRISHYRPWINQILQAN
Sequence of UniProt Q15464 (whole entry, looked up): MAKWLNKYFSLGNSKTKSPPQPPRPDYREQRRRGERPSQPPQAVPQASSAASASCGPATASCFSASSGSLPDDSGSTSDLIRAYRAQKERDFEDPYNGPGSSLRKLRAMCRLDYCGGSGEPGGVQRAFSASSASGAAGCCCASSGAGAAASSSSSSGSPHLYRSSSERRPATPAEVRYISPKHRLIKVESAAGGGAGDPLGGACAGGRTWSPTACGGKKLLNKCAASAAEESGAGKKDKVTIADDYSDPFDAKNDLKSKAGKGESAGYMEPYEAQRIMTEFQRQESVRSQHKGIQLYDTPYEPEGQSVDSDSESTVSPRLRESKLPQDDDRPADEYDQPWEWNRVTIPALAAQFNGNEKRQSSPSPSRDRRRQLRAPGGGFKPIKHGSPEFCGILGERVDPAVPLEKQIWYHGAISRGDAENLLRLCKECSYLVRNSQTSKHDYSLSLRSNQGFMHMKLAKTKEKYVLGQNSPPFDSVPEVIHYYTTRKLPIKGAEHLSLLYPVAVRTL
Sequence of UniProt P22303 (whole entry, looked up): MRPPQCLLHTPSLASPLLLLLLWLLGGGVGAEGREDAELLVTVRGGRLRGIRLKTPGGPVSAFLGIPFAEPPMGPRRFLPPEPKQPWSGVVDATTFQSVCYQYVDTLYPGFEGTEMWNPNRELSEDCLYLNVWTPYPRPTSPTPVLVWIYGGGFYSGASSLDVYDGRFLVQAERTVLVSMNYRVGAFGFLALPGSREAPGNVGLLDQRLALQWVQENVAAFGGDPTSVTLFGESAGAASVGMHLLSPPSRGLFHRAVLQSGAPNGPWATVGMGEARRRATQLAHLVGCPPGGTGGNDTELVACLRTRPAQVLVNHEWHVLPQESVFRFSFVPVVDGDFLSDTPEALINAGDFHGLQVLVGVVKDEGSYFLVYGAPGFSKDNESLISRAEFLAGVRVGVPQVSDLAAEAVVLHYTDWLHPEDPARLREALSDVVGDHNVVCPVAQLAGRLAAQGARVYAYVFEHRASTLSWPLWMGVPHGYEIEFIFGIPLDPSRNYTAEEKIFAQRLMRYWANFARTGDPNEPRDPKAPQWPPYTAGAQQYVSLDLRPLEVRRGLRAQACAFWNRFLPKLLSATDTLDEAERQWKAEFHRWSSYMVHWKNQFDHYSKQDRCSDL
Sequence of UniProt P05181 (whole entry, looked up): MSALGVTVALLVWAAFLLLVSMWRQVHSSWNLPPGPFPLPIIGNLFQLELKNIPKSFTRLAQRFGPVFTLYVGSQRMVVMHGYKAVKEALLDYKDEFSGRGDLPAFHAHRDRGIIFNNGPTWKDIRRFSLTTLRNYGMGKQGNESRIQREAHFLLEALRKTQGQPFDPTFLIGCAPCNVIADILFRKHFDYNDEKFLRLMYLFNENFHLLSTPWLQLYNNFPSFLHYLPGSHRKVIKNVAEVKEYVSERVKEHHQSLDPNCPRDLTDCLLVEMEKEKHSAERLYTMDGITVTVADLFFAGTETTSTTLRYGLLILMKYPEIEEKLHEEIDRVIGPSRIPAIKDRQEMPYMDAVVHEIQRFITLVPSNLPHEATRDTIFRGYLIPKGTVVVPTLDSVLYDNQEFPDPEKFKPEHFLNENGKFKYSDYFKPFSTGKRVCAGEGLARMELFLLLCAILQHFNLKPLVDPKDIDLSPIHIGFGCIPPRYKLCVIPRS
Sequence of UniProt P41143 (whole entry, looked up): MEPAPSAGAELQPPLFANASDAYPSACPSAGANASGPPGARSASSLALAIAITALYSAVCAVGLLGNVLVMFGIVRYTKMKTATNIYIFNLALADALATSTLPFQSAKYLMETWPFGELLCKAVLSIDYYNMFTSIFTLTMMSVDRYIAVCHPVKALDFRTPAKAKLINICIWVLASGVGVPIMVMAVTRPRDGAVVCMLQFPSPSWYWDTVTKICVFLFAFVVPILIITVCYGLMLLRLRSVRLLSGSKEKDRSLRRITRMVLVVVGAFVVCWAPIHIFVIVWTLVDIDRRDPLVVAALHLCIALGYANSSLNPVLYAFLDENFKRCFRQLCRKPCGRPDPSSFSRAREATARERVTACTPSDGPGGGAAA

SMILES | target or system | assay | test system | conditions | how to read | endpoint | result
CSCC[C@H](NC(=O)[C@H](CC(=O)O)NC(=O)c1ccc2c(c1)C(=O)OC21c2ccc(N(C)C)cc2Oc2cc(N(C)C)ccc21)C(=O)N[C@@H](CO)C(=O)N[C@@H](CCCCN)C(=O)N[C@@H](CC(=O)O)C(=O)N[C@@H](CCC(=O)O)C(=O)N[C@@H](CO)C(=O)N[C@H](C(=O)N[C@@H](CC(=O)O)C(=O)N[C@@H](Cc1ccc(OP(=O)(O)O)cc1)C(=O)N[C@H](C(=O)N1CCC[C@H]1C(=O)N[C@@H](CCSC)C(=O)N[C@@H](CC(C)C)C(=O)N[C@@H](CC(=O)O)C(=O)N[C@@H](CCSC)C(=O)N[C@@H](CCCCN)C(=O)N[C@@H](CC(=O)O)C(=O)O)C(C)C)C(C)C | SH2 domain-containing adapter protein B, SH2 domain (SHB, Homo sapiens, UniProt Q15464) | binding |  |  |  | Kd | 0.201 µM
CO[C@H]1C[C@@H]2CC[C@@H](C)[C@@](O)(O2)C(=O)C(=O)N2CCCC[C@H]2C(=O)O[C@H]([C@H](C)C[C@@H]2CC[C@@H](OC(=O)NCCOCCOCCOCCOCCOCCOCCOCCOCCC(=O)N3CCc4cc(Cn5nc(-c6ccc7oc(N)nc7c6)c6c(N)ncnc65)ccc4C3)[C@H](OC)C2)C[C@@H](O)[C@H](C)/C=C(\C)[C@@H](O)[C@@H](OC)C(=O)[C@H](C)C[C@H](C)/C=C/C=C/C=C/1C |  | phase 1 dose escalation, measured: rash | advanced solid tumour patients | intravenous, 10 mg weekly, any grade |  | TRAE incidence | 12.5%
CC[C@H](C)[C@H](NC(=O)[C@@H](NC(=O)[C@@H](NC(=O)[C@H](CC(=O)O)NC(=O)[C@H](CC(=O)O)NC(=O)CNC(=O)[C@@H](N)Cc1ccccc1)[C@@H](C)O)C(C)C)C(=O)N[C@@H](CCC(=O)O)C(=O)N[C@H](C(=O)O)C(C)C | HLA class I histocompatibility antigen, B alpha chain | peptide-MHC binding, radioligand competition binding |  |  |  | IC50 | > 70 µM
CCOc1ccc2nc3cc(N)ccc3c(N)c2c1 | cas9 | circular plasmid substrate | Streptococcus pyogenes |  |  | IC50 | 100 to 200 µM
Cc1ccc(S(=O)(=O)Oc2ccc3c(c2)Oc2nc4c(c(N)c2C3c2ccc(Cl)c(Cl)c2)CCCC4)cc1 (stereo not shown) | Acetylcholinesterase (ACHE, Homo sapiens, UniProt P22303) | enzyme activity, inhibitor |  |  |  | IC50 | 0.476 µM
COc1cc2c(Oc3ccc4[nH]c(C)cc4c3F)ccnc2cc1OCC1(N)CC1 |  |  | paediatric recurrent refractory sarcoma | 8 mg |  | Hyperthyroidism incidence | 0%
CC[C@H](C)[C@H](NC(=O)[C@H](Cc1ccccc1)NC(=O)[C@H](CCC(=O)O)NC(=O)[C@H](CCCNC(=N)N)NC(=O)[C@H](C)NC(=O)[C@H](C)NC(=O)[C@H](CCC(N)=O)NC(=O)[C@H](CCC(=O)O)NC(=O)[C@H](CCC(=O)O)NC(=O)[C@H](CC(C)C)NC(=O)[C@H](Cc1ccc(O)cc1)NC(=O)[C@H](CO)NC(=O)[C@H](CO)NC(=O)[C@@H](NC(=O)[C@H](CC(=O)O)NC(=O)[C@H](CO)NC(=O)[C@@H](NC(=O)[C@H](Cc1ccccc1)NC(=O)[C@@H](NC(=O)CNC(=O)[C@H](CCC(=O)O)NC(=O)[C@H](C)NC(=O)CCc1c[nH]cn1)[C@@H](C)O)[C@@H](C)O)C(C)C)C(=O)N[C@@H](C)C(=O)N[C@@H](Cc1c[nH]c2ccccc12)C(=O)N[C@@H](CC(C)C)C(=O)N[C@H](C(=O)N[C@@H](CCCNC(=N)N)C(=O)NCC(=O)N[C@@H](CCCNC(=N)N)C(=O)N[C@@H](CCCCNC(=O)COCCOCCNC(=O)COCCOCCNC(=O)CC[C@H](NC(=O)CCCCCCCCCCCCCCCCC(=O)O)C(=O)O)C(=O)NCC(=O)NCC(=O)N[C@@H](CO)C(=O)N[C@@H](CCCCNc1c(NCCCCCN(O)C(=O)CCC(=O)NCCCCCN(O)C(=O)CCC(=O)NCCCCCN(O)C(C)=O)c(=O)c1=O)C(=O)O)C(C)C [zirconium-89 labelled] |  |  | rat, liver | iv, 3 nmol/kg, 24 h, ex vivo |  | tissue uptake | 1.1 %ID/g
CC(C)C[C@H](NC(=O)[C@@H](NC(=O)N[C@@H](Cc1ccccc1)C(=O)O)[C@@H]1CCN=C(N)N1)C(=O)N[C@H](C=O)Cc1ccccc1 | Chymase (CMA1, Homo sapiens, UniProt P23946) | enzyme activity, inhibitor |  | added: FP-biotin 1 µM |  | IC50 | 1.08 µM
COc1cc(Nc2ncc(F)c(Nc3ccc4c(n3)NC(=O)C(C)(C)O4)n2)cc(OC)c1OC | Receptor-type tyrosine-protein phosphatase F (Homo sapiens, UniProt P10586) | phosphatase activity, inhibitor |  |  |  | IC50 | > 10 µM
CC(C)C[C@H](NC(=O)[C@H](CCC(N)=O)NC(=O)[C@H](Cc1ccccc1)NC(=O)[C@H](C)NC(=O)[C@H](CCCCN)NC(=O)[C@H](CC(=O)O)NC(=O)[C@H](CCC(=O)O)NC(=O)[C@H](CC(C)C)NC(=O)[C@@H](N)CO)C(=O)O | HLA class I histocompatibility antigen, B alpha chain | peptide-MHC binding, radioligand competition binding |  |  |  | IC50 | > 70 µM
CSCC[C@H](NC(=O)CNC(=O)[C@H](Cc1ccccc1)NC(=O)[C@H](CC(=O)O)NC(=O)CNC(=O)c1ccc2c(c1)C(=O)OC21c2ccc(N(C)C)cc2Oc2cc(N(C)C)ccc21)C(=O)N[C@@H](CO)C(=O)N[C@@H](CCCNC(=N)N)C(=O)N[C@@H](CC(=O)O)C(=O)N[C@H](C(=O)N[C@@H](Cc1ccc(OP(=O)(O)O)cc1)C(=O)N[C@@H](CO)C(=O)N[C@H](C(=O)N[C@@H](CC(=O)O)C(=O)N[C@@H](Cc1ccc(O)cc1)C(=O)N[C@@H](Cc1ccc(O)cc1)C(=O)N[C@@H](CCCNC(=N)N)C(=O)N[C@H](C(=O)N[C@@H](CC(=O)O)C(=O)O)C(C)C)[C@@H](C)O)C(C)C | Tyrosine-protein phosphatase non-receptor type 6, SH2 domains (PTPN6, Homo sapiens, UniProt P29350) | binding |  |  |  | Kd | 0.967 µM
OCCN(CCO)c1nc(N2CCCCC2)c2nc(N(CCO)CCO)nc(N3CCCCC3)c2n1 | Beta-lactamase TEM (bla, Escherichia coli, UniProt P62593) | inhibitor |  |  |  | IC50 | > 30 µM
CC(=O)N1C[C@@H](CCN2CC=C(c3c[nH]c4cc(Cl)ccc34)CC2)c2ccccc21 | Sodium-dependent serotonin transporter (SLC6A4, Homo sapiens, UniProt P31645, R104A) |  |  |  |  | IC50 | 0.368 µM
Nc1ccccc1 | Cytochrome P450 2E1 (CYP2E1, Homo sapiens, UniProt P05181) | enzyme activity, inhibitor |  | 30 min, pH 7.4 |  | IC50 | 51 µM
CNC(C)Cc1ccc2nonc2c1 (stereo not shown) | Sodium-dependent serotonin transporter (SLC6A4, Homo sapiens, UniProt P31645) |  |  |  |  | IC50 | 23.9 ± 5 µM
C[C@@H](NC(=O)[C@@H](N)Cc1ccc(O)cc1)C(=O)NCC(=O)N[C@@H](Cc1ccc(Cl)cc1)C(=O)N(C)CCC[C@@]1(c2ccc(F)cc2)OCc2cc(C#N)ccc21 | Delta-type opioid receptor (OPRD1, Homo sapiens, UniProt P41143) |  |  |  |  | IC50 | 0.00339 µM
CC[C@H](C)[C@@H]1NC(=O)[C@@H]2CCCN2C(=O)[C@H](CC(C)C)NC(=O)[C@H](CC(C)C)NC(=O)CNC(=O)[C@@H](NC(=O)[C@@H](NC(=O)[C@H](CC(=O)O)NC(=O)CNC(=O)[C@@H](NC(=O)[C@H](C)NC(=O)CNC(=O)[C@H](CCCCN)NC(=O)[C@H](CC(C)C)NC(=O)[C@H](CC(C)C)NC(=O)[C@H](CCCCN)NC(=O)CNC(=O)[C@@H](NC(=O)[C@@H](N)CC(C)C)C(C)C)C(C)C)C(C)C)CSSC[C@@H](C(=O)O)NC1=O |  | RNA-seq, measured: Slamf7 | mouse, traumatic brain injury model, frontal cortex and hippocampus | dose not given | relative to: TBI alone | log2 fold change | -2.73
Cc1cnc(CNC(=O)c2c(=O)c3ccc(N4CCCN(C)CC4)nc3n3c2sc2ccccc23)cn1 | cas9 | linear substrate | Streptococcus pyogenes |  |  | IC50 | 10 to 20 µM
NC(=O)CC[C@H](NC(=O)[C@@H]1CC[C@@H]2CCN(C(=O)CCCCCC#Cc3cccc4c3CN(C3CCC(=O)NC3=O)C4=O)C[C@H](NC(=O)c3cc4cc(C(F)(F)P(=O)(O)O)ccc4[nH]3)C(=O)N21)C(=O)NC(c1ccccc1)c1ccccc1 (stereo partly shown) | STAT5 | binding, fluorescence polarization |  |  |  | IC50 | > 10 µM
C[C@]1(CO)Cc2ncn(-c3ccc(C#N)c(Cl)c3)c2C(=O)O1 |  |  | healthy Japanese adults, plasma | 40 mg once daily, after first dose, multiple dose |  | Cmax | 2830 nM
C[C@H]1CN(c2n[nH]c3nc(N[C@H]4CC[C@H](NS(=O)(=O)CCC(F)(F)F)CC4)ncc23)CCO1 | SWI/SNF-related matrix-associated actin-dependent regulator of chromatin subfamily E member 1 (Homo sapiens, UniProt Q969G3) | biochemical |  |  |  | IC50 | ≥ 20 µM
CCN1CCN(Cc2ccc(Nc3nc4ccc(Oc5ccnc(NC(=O)C6CCN(C)CC6)c5)cc4[nH]3)cc2C(F)(F)F)CC1 | Protein kinase 6 (Plasmodium falciparum, UniProt Q8IDW1) | enzyme activity, inhibitor |  |  |  | IC50 | 0.4 ± 0.1 µM

Some of these lines once more:
SMILES | target or system | assay | test system | conditions | how to read | endpoint | result
OCCN(CCO)c1nc(N2CCCCC2)c2nc(N(CCO)CCO)nc(N3CCCCC3)c2n1 | Beta-lactamase TEM (bla, Escherichia coli, UniProt P62593) | inhibitor |  |  |  | IC50 | > 30 µM
CC(=O)N1C[C@@H](CCN2CC=C(c3c[nH]c4cc(Cl)ccc34)CC2)c2ccccc21 | Sodium-dependent serotonin transporter (SLC6A4, Homo sapiens, UniProt P31645, R104A) |  |  |  |  | IC50 | 0.368 µM
Cc1cnc(CNC(=O)c2c(=O)c3ccc(N4CCCN(C)CC4)nc3n3c2sc2ccccc23)cn1 | cas9 | linear substrate | Streptococcus pyogenes |  |  | IC50 | 10 to 20 µM
